Measurements pooled from the literature.
Every numbered part comes from another study and shows a few of its results, in no order. Changes are numbered by the printed parent chain.

Study 1 — method: RNA Bind-n-Seq; form: RNA; medium: in vitro; concentration: 365 nM; reference: no-protein control; reading: higher = stronger binding
Target: RNA binding protein fox-1 homolog 2, RRM domain, GST-SBP tag (RBFOX2, Homo sapiens, UniProt O43251-10, residues 100-194)
Notes: natural RNA segment, single round, ends assumed
Shared flanks, not repeated: GGGAGUUCUACAGUCCGACGAUC … UGGAAUUCUCGGGUGCCAA
Residues (chain): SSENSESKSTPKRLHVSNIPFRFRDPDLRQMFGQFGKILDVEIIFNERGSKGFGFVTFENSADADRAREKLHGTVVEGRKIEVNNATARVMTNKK
Sequence	RBNS enrichment (R)
AGUAUGGGGUUUGUGCUAUGUGGAUGGAUAUGUAAGGAACUCCAGUUCCAGCUACAACUAAAUACAACGUCCUUUGCACCCCUAGAAUGUCAUUUUGCCCUCAAUCUUGG	1.17
ACAUUCCUGGACACCCUCACCACCCCGCAGUGAUGAUGCAUGGAGGACAGCCCCACCCUGGAAUGCCAAUGUCAGCCUCAAGCCCCUCGGUUCUUAACACAGGAGACCCG	4
UGCCACCUUGUACAAAGCCAGCUGACCAGCCCCCGCCUCCUCACCACACCCCAGCUCCUAUCUUCUGUACCCGAGUGUGUCUGAUGCUCCGUGCUGUCCAGGAAUUGUUU	1.38
CUCUGAAUUAAGGAUUUCAGGUUUAACUGGUAGUGAAAGACUGCACCUAGCAUCUUCGGGAAGAAAUGAUUCCAGUCUAUUGGCUGAUACUACAUUAGUUUCCCUUUCUG	0.845
GAGGGAGGGUUUAUCACUGCUUAACUUCAUCUUCAUGAAAUGAAACUUUGUAACUUAUUGUAGUUAGAAAUUGUAACUUUGAUAUUGAAUUCUCUUGCCUUCAACAAGCA	0.625
CCUGCCUGGACACAGGGAGGCCCAGGGACUGACUCCUGGCCUGAGUGAUGCCCUCCUGGGCCCUUAGGCAGAGCCUGGUCCAUUGUACCAGGCAGCCUAGCCCAGCCCAG	0.193
AGCCUCCUUACAUUAAAAAGCCUUACAGUUAUCCUGCAAGGGACAGGAAGGUCUGAUUUGCAGGAUUUUUAGAGCAUUAAAAUAACUAUCAGGCAGAAGAAUCUUUCUUC	0.544
AUGGCUGGCAGCCAGAUCCUGGGGCAACCCAUCUGGUCUCUUGAAUAAAGGUCAAAGCUGGAUUCUCACCAUAGCCUCUGUCUCUCUUGUCCCGUCCCAGACAGUGGGCC	0.354
UAAAUCAUUAGGAUAACUCCUGUCUGGUUCCUAAUGAAUAAAAGGUGUGUUAAAUACCAAGAUUAUUGACGUAUAUACUAAUCAGCUCCAAAUCACAUACAGUUUAAUCU	0.608
UUUUUCUUCUAGCAUUUAUAAUUUUUUCAACUCCUAUUGUGUUUCUUUGUGUGUGAUAUUUUAAUCAAAAGUGGUUGAGUUGUUAACAGUGUUCUUUGAAAGAAUCUCUA	2.07
AGGAUCAAUAUUUUGCUUUUUAACAAGGAUAUUUAUGUAAUAAGAAACUUUGCCUUAGGUAGGUGUUGGCCAGAAAAGUCCAGAUUUCUCUGUGACCUCACCCUGGCCUC	0.401

Study 2 — method: protein-binding microarray; form: double-stranded DNA, one strand shown; medium: in vitro; concentration: 0.8 µM; notes: whole 60-bp probe, no competitor; reading: higher = stronger binding; shared flanks, not repeated: … GTCTTGATTCGCTTGACGCTGCTG
Target: Centromere-binding protein 1, full length, N-terminal tag (CBF1, Saccharomyces cerevisiae, UniProt P17106, residues 1-351)
Sequence of UniProt P17106 (whole entry, looked up): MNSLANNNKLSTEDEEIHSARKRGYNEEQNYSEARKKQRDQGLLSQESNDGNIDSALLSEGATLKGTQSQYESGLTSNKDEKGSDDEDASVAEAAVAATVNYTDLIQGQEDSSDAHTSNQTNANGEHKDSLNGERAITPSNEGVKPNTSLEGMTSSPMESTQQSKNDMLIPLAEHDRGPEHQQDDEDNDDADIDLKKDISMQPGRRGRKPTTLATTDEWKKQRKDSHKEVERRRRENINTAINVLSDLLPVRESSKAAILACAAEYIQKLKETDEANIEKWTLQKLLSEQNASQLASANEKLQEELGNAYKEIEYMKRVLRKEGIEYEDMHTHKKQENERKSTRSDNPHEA
Sequence	fluorescence intensity [a.u.]
GAATAGAAGTAATGGTATGTCACGTATAAATAATAG	808
CTAGTAAAAGCACGTGATATTGCCTTTTTCTTTTTC	14600
GAACGCGCCAGGCATGGCGTGAACCTAACCAATTAG	478
CTAAACTTTTGTCATCACCTGCTCTCTGAAGGTTTC	1290
CTACCCGCAGAGCACGTGAGCAAAAAATCAATTTTC	14400
GAATTTTTTTTTTTCCTTGTGATTGTTTATTTATAG	628
CTAACAAAGTTGGGTCACGTTTCTCGCAATTATTTC	3930
CTATATGTGTTTATTCACGTTCACTGTGTGTTCTTC	540
CTATAGTAGGAATATCACGTTTAACGATGCCCCTTC	767
GAATTACAAACACATCACGGGCCACCGGAAAAATAG	853
GAAAGATGTATGGGTCTCATGAATAACGGCCCGTAG	487
GAATCCTTCCGCACACACGCAATTAGCTGCCGATAG	510
CTACTTCAATAAAGTCACGCGTAGTTAAAATATTTC	2040
TGTACGAAGCTATAAAACATGATTATAGTAGTTAGG	510
GAACTTTATGAGGGTAACATCAATTCAAGAAGGTAG	559
CTAAGCGTGTGCAGGTGATTTATTGATAAAGTCTTC	1180
CTATGTGTGATATATTACATCAGAGGAAATAAATTC	524

Study 3 — method: protein-binding microarray; form: double-stranded DNA, one strand shown; medium: in vitro; concentration: not given; reading: higher = stronger binding
Target: Max-binding protein MNT, bHLH-zipper, MAX partner unstated (MNT, Homo sapiens, UniProt Q99583, residues 220-300)
Notes: k-mer, scored over probes, only values ≥0.25
Construct (chain): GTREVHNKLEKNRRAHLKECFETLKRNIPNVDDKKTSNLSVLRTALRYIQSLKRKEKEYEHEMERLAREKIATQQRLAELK
Sequence	E-score
CGAGCACG	0.353
CATGTGCA	0.474
AACGTGCG	0.42
CGTACCAC	0.285
CCATGTGA	0.469
ATCCGCAC	0.254
CGTCCACG	0.318
GCACGTGC	0.498
CCCGTGTC	0.283
GTGGGACA	0.396
TCACGCGA	0.372
CACGTTTC	0.409
ACATGTAA	0.307

Study 4 — target: CCNE2, cyclin fold, Cln2 fusion (human); method: yeast growth competition, sequencing; medium: yeast; notes: weak parent motif; reference: not given; reading: higher = stronger binding
Starting sequence: MASTL docking peptide (human); PMIAKNLMCELDE
Variant	normalised enrichment score
C9E	-0.558
N6I	0.133
L11K	0.0362
L7C	-0.14
L7Q	-0.166
E10N	0.171
A4Y	-0.252
A4F	0.102
E10F	-0.204
N6S	-0.106
D12Y	-0.437
L7G	-0.525
I3K	0.0638
D12S	-0.0264
D12K	-0.0415

Study 5 — method: universal PBM; form: double-stranded DNA, one strand shown; medium: in vitro; concentration: 600 nM; reading: higher = stronger binding
Target: Sal-like protein 4, full length isoform A (SALL4, Homo sapiens, UniProt Q9UJQ4, residues 1-1053)
Sequence of UniProt Q9UJQ4 (whole entry, looked up): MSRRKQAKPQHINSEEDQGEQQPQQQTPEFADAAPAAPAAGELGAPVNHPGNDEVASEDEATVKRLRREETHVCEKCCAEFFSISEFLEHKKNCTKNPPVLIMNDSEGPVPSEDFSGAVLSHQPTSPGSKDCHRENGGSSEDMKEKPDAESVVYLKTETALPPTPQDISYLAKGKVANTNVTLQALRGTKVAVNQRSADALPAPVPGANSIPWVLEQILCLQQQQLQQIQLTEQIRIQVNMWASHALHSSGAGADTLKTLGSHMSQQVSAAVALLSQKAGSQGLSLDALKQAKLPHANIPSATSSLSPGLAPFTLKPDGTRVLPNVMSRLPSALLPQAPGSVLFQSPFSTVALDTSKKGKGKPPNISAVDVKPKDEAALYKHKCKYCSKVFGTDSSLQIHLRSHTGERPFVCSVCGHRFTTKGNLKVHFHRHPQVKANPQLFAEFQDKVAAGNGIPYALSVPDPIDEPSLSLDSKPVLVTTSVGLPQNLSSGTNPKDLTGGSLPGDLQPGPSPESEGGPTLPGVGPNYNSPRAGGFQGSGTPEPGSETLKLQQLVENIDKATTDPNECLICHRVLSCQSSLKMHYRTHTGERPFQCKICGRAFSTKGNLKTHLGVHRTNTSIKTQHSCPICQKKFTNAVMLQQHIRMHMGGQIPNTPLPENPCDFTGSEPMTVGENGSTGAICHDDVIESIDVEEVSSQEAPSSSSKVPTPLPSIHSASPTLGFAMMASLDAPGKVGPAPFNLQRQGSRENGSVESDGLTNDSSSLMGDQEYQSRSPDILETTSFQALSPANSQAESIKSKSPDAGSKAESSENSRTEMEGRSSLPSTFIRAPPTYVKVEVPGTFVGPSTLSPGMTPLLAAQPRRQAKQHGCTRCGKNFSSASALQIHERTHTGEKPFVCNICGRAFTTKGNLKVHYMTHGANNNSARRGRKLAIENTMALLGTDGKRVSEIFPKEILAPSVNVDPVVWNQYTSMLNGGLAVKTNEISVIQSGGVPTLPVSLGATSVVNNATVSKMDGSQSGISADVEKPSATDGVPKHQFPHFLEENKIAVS
Notes: 8-mer, flanks averaged, mean of replicates
Sequence	E-score
CCAGAAGA	-0.0125
GTGTAGGA	0.0472
GCTATCCC	-0.212
ATCATCGG	0.0643
GTCAGATA	0.106
CTTTTAGA	0.0938
ATGGAAGG	0.0372
CAATTGTC	0.0871
CAACAAAC	-0.127

Study 6 — method: protein binding microarray; form: double-stranded DNA, one strand shown; medium: in vitro; concentration: not given; reference: not given; reading: higher = stronger binding
Target: Histone acetyltransferase KAT6A, winged helix 1, GST fusion (KAT6A, Homo sapiens, UniProt Q92794, residues 1-85)
Notes: 8-mer, flanks averaged, mean of 2 arrays, mostly near background
Target sequence (chain): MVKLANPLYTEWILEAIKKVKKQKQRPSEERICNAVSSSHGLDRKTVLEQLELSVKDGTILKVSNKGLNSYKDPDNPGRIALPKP
Sequence	E-score
AGATAGCT	-0.159
CCCGAGAC	0.136
ACCATGAA	-0.0168
ATAACTCG	0.0283
AGATAACA	-0.197
CTAAAATA	-0.0882
AACGTTCA	-0.074
CCACTACG	0.0279
GATTGACA	-0.107
GTCAACAC	-0.125
AACCAGCC	-0.0822
ATGATGGG	-0.244
GCTTTTGA	0.0382
TCTCTGCA	-0.208
AAAACATA	-0.085
AATAGCAT	-0.131
AATTCGAC	-0.113

Study 7 — method: RNA Bind-n-Seq; form: RNA; medium: in vitro; concentration: 1 µM; notes: whole 134-nt RNA, ends assumed; with: 150 mM KCl; reference: input library; reading: higher = stronger binding
Target: Ras GTPase-activating protein-binding protein 1, RRM domain (G3BP1, Homo sapiens, UniProt Q13283)
Sequence of UniProt Q13283 (whole entry, looked up): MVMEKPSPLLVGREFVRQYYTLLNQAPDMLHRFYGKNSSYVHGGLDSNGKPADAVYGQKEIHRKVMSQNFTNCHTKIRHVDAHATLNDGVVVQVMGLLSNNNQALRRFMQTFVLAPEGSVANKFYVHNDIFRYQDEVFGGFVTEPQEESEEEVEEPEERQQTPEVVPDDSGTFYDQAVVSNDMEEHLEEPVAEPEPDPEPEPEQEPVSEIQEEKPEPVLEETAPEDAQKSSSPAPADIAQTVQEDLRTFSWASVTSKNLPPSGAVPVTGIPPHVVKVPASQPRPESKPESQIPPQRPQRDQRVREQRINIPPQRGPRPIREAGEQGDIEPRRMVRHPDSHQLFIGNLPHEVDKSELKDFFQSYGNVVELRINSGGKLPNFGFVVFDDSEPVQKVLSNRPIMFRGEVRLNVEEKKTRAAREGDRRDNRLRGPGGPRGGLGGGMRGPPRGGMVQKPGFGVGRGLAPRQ
Shared flanks, not repeated: GGGAGUUCUACAGUCCGACGAUC … UGGAAUUCUCGGGUGUCAAGG
Sequence	log2 enrichment
GUCCUGUGCUACACAUCGUAUGUACCGAAUCGGGUUUUUUUGGGAGGGAAAAAAAGGGAAAGUAUUAUGUUACGCCGUUCGGAUCUGCAC	-0.0437
UGGCCCUGGUGGCAUGCGGGGUGGAAGAGGUGGCCUCAUGGAUCGUGGUGGUCCCGGUGGAAUGUUCAGAGGUGGCCGUGGUGGAGACAG	0.92
CCUGUGCUACACAUCGUAUGUACCGAAUCGGUUUUUUUGGGUUUUUUUGGGUUUUUUUGGGAAAGUAUUAUGUUACGCCGUUCGGAUCUG	-0.371
UGUGCUACACAUCGUAUGUACCGAAUCGGGGAAAAAGGGGUUUUUUUGGGGAAAAAAAGGGGAAAGUAUUAUGUUACGCCGUUCGGAUCU	1.33
GCAGGAAGUAAAAACAAAUGGAAAUGCUUAGGAUAGUGGCAGGGGUGGGGGUUGCUAAGGAAAGGGUGGGAUGGGAGUGGGUAAAGAGUU	1.52
CUGUGCUACACAUCGUAUGUACCGAAUCGGGGAAAAAAAGGGAAAAAAAGGGAAAAAAAGGAAAGUAUUAUGUUACGCCGUUCGGAUCUG	0.0532
CAAGUCCUGUGCUACACAUCGUAUGUACCGAAUCGGGGUUGGGGUUGGGUUGGGGAAAGUAUUAUGUUACGCCGUUCGGAUCUGCACUUC	1.07

Study 8 — method: RNAcompete; form: RNA; medium: in vitro; concentration: 20 nM; notes: 7-mer, probes averaged, single round; reference: mean of 7-mers; reading: higher = stronger binding
Target: PABPC1L2, full length, GST fusion (mouse, UniProt A0ABA7IW68)
Construct (chain): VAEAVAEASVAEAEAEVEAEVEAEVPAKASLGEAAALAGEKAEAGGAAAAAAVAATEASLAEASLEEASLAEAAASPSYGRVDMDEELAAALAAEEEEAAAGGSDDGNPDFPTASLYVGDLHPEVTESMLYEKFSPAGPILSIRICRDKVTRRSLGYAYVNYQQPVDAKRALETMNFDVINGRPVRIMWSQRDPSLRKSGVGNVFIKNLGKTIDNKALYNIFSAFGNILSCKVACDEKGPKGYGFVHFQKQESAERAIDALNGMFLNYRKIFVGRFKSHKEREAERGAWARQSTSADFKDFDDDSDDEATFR
Sequence	7-mer Z-score
GAGGACC	0.258
CUCGCGG	-0.269
AACUCUC	-0.262
UCACGUU	-0.311
UUAGAUC	-0.117
AGUCGAA	-0.079
GCGGAUU	-0.0156
CACACGC	-0.193
GUGUCAC	-0.148
GCGUGAU	-0.0536

A few entries again (study 6):
Sequence	E-score
AGATAACA	-0.197
CTAAAATA	-0.0882
AACGTTCA	-0.074
CCACTACG	0.0279
GATTGACA	-0.107
GTCAACAC	-0.125
AACCAGCC	-0.0822
ATGATGGG	-0.244
GCTTTTGA	0.0382
TCTCTGCA	-0.208
AAAACATA	-0.085
AATAGCAT	-0.131
AATTCGAC	-0.113
